Experimental data collected from several papers.
Each numbered part is a random draw from the data of one study; scales do not carry over between parts.

Study 1
Target: Histone acetyltransferase KAT6A, winged helix 2, GST fusion (KAT6A, Homo sapiens, UniProt Q92794, residues 85-181)
Method: protein binding microarray
Form: double-stranded DNA, one strand shown
Medium: in vitro
Tested at: not given
Setting: 8-mer, flanks averaged, mean of 2 arrays, mostly near background
Reference: not given
Direction: higher = stronger binding
Residues (chain): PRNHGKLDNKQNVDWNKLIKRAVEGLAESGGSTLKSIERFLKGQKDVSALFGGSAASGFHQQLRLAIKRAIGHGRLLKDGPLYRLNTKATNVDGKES
Oligonucleotide | E-score
GGTGCATA | 0.109
ATCAGCGC | -0.00233
GCAGATCA | -0.109
AAATGGTG | 0.0288
TATTGCAA | -0.0274
TTGGAAAA | -0.0268
AAACTCGT | -0.036
ACAAAGAC | 0.0497
ACAAATCC | -0.0296
CTAAGGTA | 0.00851
CTATGTGA | -0.122
CGCGTCGC | 0.191
CGGCATAA | 0.0457
CCACACTC | -0.0412
AAGATTCT | -0.0499
AGCTGACT | 0.0799
GCTTACAA | 0.0717
GGGAGAAC | 0.0868
GAGATGGA | 0.0271
TATCGACA | 0.0623
TACACAAA | 0.116
CCGGCGCG | 0.272

Study 2
Target: Ras GTPase-activating protein-binding protein 1, full length (G3BP1, Homo sapiens, UniProt Q13283)
Sequence of UniProt Q13283 (whole entry, looked up): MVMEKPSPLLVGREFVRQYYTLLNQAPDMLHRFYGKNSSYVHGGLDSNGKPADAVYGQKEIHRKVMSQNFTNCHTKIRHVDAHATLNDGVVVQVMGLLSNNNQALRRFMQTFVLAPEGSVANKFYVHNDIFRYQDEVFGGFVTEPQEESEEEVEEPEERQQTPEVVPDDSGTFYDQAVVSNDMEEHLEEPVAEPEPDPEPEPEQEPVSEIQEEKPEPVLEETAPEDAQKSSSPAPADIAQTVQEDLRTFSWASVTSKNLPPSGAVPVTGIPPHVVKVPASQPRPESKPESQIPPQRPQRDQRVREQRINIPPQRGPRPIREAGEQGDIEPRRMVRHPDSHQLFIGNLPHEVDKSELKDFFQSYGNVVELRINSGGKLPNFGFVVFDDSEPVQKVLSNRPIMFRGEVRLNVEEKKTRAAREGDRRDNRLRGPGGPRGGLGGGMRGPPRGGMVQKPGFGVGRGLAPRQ
Method: RNA Bind-n-Seq
Form: RNA
Medium: in vitro
Tested at: 200 nM
Setting: whole 134-nt RNA, ends assumed
With: 150 mM LiCl
Reference: input library
Direction: higher = stronger binding
Library: 7-deaza-guanosine replaces G
Oligonucleotide | log2 enrichment
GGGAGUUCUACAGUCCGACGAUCUCAAGUCCUGUGCUACACAUCGUAUGUACCGAAUCGGUUUGGUGGAAAAAAAGGAAAGUAUUAUGUUACGCCGUUCGGAUCUGCACUUCCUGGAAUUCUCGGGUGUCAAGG | -0.122
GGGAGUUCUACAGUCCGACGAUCCAAAAUACCAAGGGAUUUAUAUGAGGAUGAGUUGGUGCCCCUUUUUGAGAAGGCCGGACCCAUUUGGGAUCUACGUCUUAUGAUGGAUCCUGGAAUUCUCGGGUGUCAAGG | 1.18
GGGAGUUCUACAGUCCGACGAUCUCCUGUGCUACACAUCGUAUGUACCGAAUCGGGGUGGGGUUUUUGGGGAAAAAAAGGGGAAAGUAUUAUGUUACGCCGUUCGGAUCUGCAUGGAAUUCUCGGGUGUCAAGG | -0.882
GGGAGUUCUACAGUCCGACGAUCAGUCCUGUGCUACACAUCGUAUGUACCGAAUCGGGGUUUUUGGGGAGGGGAAAGGGGAAAGUAUUAUGUUACGCCGUUCGGAUCUGCACUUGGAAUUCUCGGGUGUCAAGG | 0.656
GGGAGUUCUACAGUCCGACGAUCCUCAAGUCCUGUGCUACACAUCGUAUGUACCGAAUCGGAAAAAAAGGUGGUGGAAAGUAUUAUGUUACGCCGUUCGGAUCUGCACUUCCAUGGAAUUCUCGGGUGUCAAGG | -0.366
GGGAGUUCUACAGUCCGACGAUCAGUCCUGUGCUACACAUCGUAUGUACCGAAUCGGGGAGGGGAGGGGUUUUUUUGGGGAAAGUAUUAUGUUACGCCGUUCGGAUCUGCACUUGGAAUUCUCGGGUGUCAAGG | 0.623
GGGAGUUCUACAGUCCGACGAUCGAACUUUAGAGGAGGAUCUGAUGGAUAUGGCAGUGGACGUGGAUUUGGGGAUGGCUAUAAUGGGUAUGGAGGAGGACCUGGAGGUGGCAAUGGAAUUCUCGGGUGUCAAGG | 0.118
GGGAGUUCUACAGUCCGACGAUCCACAGACAACACGCACCCACACAGACACAGAAAGAAGGGGUUGGGAUGGGGACAGGGUGCACAGCAGGGCGGGGUAGGACCCCAGCCCCUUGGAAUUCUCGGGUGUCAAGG | 0.2

Study 3
Target: RNA binding protein fox-1 homolog 2, RRM domain, GST-SBP tag (RBFOX2, Homo sapiens, UniProt O43251-10, residues 100-194)
Method: RNA Bind-n-Seq
Form: RNA
Medium: in vitro
Tested at: 365 nM
Setting: natural RNA segment, single round, ends assumed
Reference: no-protein control
Direction: higher = stronger binding
Target sequence (chain): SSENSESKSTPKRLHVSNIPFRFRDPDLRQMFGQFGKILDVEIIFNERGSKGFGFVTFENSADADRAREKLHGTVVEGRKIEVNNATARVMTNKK
Oligonucleotide | RBNS enrichment (R)
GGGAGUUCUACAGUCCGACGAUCUGACCCCUCUCCUCAAGGGAAGGCCUUGGGUGGCCCCCUCUCCUUCUCCUAGCUCUGGAGGUGCUGCUCUAGGGCAGGGAAUUAUGGGAGAAGUGGGGGCAGCCCAGGCGUGGAAUUCUCGGGUGCCAA | 0.223
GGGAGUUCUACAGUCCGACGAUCGGGGCCUGGGCUCGGCCUAGCCAGCGCUCUCCCAGAAUUGAACACUUUCUGCCUGGGAUGUCUGCUGCAAAAGCAGUGACCUCUGACCCCUGGUGACCUUUGCUCUCGGCUGGAAUUCUCGGGUGCCAA | 0.393
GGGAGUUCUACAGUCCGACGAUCAAGGUGCUUGCAGUCACCUGAGGCCGUCCGUGUGGCCCAGGGCCCCAGCUGCCUUUAGGGCCCCCAUUGUUCAUAACAGCAUAUGCAUUUCCCCACCGCGUUGUGUCUGCUGGAAUUCUCGGGUGCCAA | 0.501
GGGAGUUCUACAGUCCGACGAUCAAUUGUAUGUUUAAUCUGUUUCUGAAAUCAUUUUGCAAUAUAUGGAAAUAGAGUAGCAGUUGAUAUUUCUAAAUUGUGACCAUUGUCCGAGAUUGCUUUGAGAACUGGUAUGGAAUUCUCGGGUGCCAA | 0.948
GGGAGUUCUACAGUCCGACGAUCAGGAAUUAUUGUUAUUUAAUAAAUAUUUCAGGAUAUUUUUCCUCUACAAUAAAGUAACAAUUAACUUAUGUUUUUGUGCUUCAGAGUGAUCCAUUUGAUCAAGCAUUGUAUGGAAUUCUCGGGUGCCAA | 0.46
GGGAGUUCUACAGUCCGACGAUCAGCCACUUGCUGACCCUGGUUCUUAAGGACACAUGACAUUAGUCCAAUCUUUCAAAAUCUUGUCUUAGGGCUUGUGAGGAAUCAGAACUAACCCAGGACUCAGUCCUGCUUGGAAUUCUCGGGUGCCAA | 0.194
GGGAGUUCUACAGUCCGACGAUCAUGGACUUCUGAGCCGUCUGACUUCUCUCUUCUCCCCAAGAGUCCAAUGCUAGGACACUGGCCAUGUGCACACCAGCACUCAAGACAAGAAGCCAGCCUCCCGGCCCAGCUGGAAUUCUCGGGUGCCAA | 0.534
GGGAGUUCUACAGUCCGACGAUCGGUGUUCCAUCUCUCUAUCAUGUCUCCUGAGUCCGUUUCACGUUUUUGAGCCUGGCUAAUGAGAAAAAGAACAAAGUAGGACCAUGACCCAGUGUUCUCCUGUAAAUCUCUGGAAUUCUCGGGUGCCAA | 0.413

Study 4
Target: Sal-like protein 4, full length isoform B (SALL4, Homo sapiens, UniProt Q9UJQ4-2, residues 1-616)
Method: universal PBM
Form: double-stranded DNA, one strand shown
Medium: in vitro
Tested at: not given
Setting: 8-mer, flanks averaged, mean of replicates
Direction: higher = stronger binding
Residues (chain): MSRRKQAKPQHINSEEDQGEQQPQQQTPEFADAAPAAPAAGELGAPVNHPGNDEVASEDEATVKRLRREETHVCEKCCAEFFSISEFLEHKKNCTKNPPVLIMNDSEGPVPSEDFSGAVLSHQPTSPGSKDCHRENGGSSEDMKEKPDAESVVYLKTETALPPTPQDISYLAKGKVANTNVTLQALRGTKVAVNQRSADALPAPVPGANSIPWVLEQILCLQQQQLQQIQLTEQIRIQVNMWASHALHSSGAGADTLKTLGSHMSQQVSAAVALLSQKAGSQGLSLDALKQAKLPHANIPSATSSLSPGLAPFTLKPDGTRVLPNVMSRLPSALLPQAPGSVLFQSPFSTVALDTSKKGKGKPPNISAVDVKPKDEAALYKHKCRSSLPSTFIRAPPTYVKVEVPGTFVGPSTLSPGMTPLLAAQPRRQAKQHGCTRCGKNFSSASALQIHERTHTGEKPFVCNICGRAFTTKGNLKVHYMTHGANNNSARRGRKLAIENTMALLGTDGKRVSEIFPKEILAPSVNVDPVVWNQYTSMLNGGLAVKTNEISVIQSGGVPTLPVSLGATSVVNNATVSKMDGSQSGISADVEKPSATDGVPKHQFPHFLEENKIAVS
Oligonucleotide | E-score
AGGTAACG | -0.0387
GGTTGAGA | -0.0956
AAGGGGTA | -0.0842
CCCGCTAG | -0.118
CCGCCCCG | -0.25
GCTAGCCC | -0.15
ACAGAGCT | -0.218
CATCCGAG | -0.193
CAACGACC | -0.168
AAGTGCGG | -0.0999
CCTTGTGC | -0.135
GCTATCAC | -0.0339
CTTTCGCC | -0.0244
TAACATCA | 0.247
GTAATCCA | 0.188
GCTCGACA | -0.123
ACGCACAC | 0.0224
ACGTCAAG | 0.0363
GACCCGAC | -0.263
TCTCCTAA | 0.116
GAGCTCCA | -0.231
TAAGGGAA | 0.187
GACCTATC | -0.0758
GGGGGGGA | -0.33
CACGCTAC | -0.075

Repeated from above (study 4):
Oligonucleotide | E-score
GTAATCCA | 0.188
GCTCGACA | -0.123
ACGCACAC | 0.0224
ACGTCAAG | 0.0363
GACCCGAC | -0.263
TCTCCTAA | 0.116
GAGCTCCA | -0.231
TAAGGGAA | 0.187
GACCTATC | -0.0758
